Measurements gathered from unrelated publications.
Numbered parts are unrelated; each lists some results of a single study.

Study 1 — method: RNA Bind-n-Seq; molecule type: RNA; medium: in vitro; concentration: 200 nM; notes: whole 134-nt RNA, ends assumed; with: 150 mM LiCl; baseline: input library; reading: higher = stronger binding; each molecule: 7-deaza-guanosine replaces G
Target: Ras GTPase-activating protein-binding protein 1, full length (G3BP1, Homo sapiens, UniProt Q13283)
Sequence of UniProt Q13283 (whole entry, looked up): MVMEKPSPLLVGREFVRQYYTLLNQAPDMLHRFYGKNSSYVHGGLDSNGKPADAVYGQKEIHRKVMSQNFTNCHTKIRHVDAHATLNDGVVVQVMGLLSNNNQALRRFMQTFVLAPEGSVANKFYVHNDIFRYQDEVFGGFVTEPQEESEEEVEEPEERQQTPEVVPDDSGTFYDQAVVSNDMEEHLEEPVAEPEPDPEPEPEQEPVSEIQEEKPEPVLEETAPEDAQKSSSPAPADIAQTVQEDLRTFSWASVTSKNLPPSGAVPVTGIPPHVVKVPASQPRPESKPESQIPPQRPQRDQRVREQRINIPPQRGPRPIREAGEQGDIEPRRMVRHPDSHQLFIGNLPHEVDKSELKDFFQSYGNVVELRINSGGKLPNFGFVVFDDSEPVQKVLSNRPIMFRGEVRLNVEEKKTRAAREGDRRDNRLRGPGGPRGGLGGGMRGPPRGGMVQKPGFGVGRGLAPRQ
`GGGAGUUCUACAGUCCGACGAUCGCAGGAAGCAAAAACAAAUGGAAAUGCUUCGGAUAGUGGCAGGGGUGGGGGUUGCUAAGGAAAGGGUGGGAUGGGAGUGGGUAAAGAGUUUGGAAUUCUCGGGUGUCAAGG` gave a log2 enrichment of 0.176.
The log2 enrichment of `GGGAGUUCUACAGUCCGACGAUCUUCACUCUUUGAAGGAACGUGGUACUUAGUUAGGGUGGAUGAAAAGCACAGAAGAACUUACGCUCGGCGUCCCACUCCAAAUGAUGACACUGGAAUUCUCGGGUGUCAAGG` is reported as 0.149.
The log2 enrichment of `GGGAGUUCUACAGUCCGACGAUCUCAAGUCCUGUGCUACACAUCGUAUGUACCGAAUCGGUUUUUUUGGAAAGGAGGAAAGUAUUAUGUUACGCCGUUCGGAUCUGCACUUCCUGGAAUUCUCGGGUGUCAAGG` is reported as 0.202.
With `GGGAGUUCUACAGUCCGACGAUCCACAGACAACACGCACCCACACAGACACAGAGGGAAGGGGUAAAGAUGGGGACAGGGUGCACAGCAGGGCGGGGUAGGACCCCAGCCCCUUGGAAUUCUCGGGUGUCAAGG` the log2 enrichment was -0.406.
For `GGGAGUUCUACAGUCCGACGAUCGUCCUGUGCUACACAUCGUAUGUACCGAAUCGGGGUGGGGUUUUUUUGGGGAAAGGGGAAAGUAUUAUGUUACGCCGUUCGGAUCUGCACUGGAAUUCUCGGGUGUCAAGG`, the log2 enrichment was 0.406.
`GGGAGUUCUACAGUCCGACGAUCUGUGUGACUUCCUUGGAGAGAAGAUUGCAUCUGUUUUGGGUAUCAGCACCCCAAAGUACCAAUAUGCCAUUGAUGAAUAUUAUCGGAUGAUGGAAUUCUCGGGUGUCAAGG` gave a log2 enrichment of -0.275.
The log2 enrichment of `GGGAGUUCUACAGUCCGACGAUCUCCUGUGCUACACAUCGUAUGUACCGAAUCGGGGAAAAAGGGGUUUUUGGGGAAAGGGGAAAGUAUUAUGUUACGCCGUUCGGAUCUGCAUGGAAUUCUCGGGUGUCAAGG` is reported as -0.119.
For `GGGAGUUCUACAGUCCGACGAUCUCAGUGUCUUACCCUGAAGAGAAAGUUGUAGGUUGGCUGUUGAAAUUCAUUCCUUAGAUAUGAUCAGUUUGAUUGCCCGGCUUUAUUGCCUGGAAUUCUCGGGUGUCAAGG`, the log2 enrichment was -1.38.
With `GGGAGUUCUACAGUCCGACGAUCUAACUUUAGAGGAGGAUCUGAUGGAUAUGGCAGUGGACGUGGAUUUGGAGAUGGCUAUAAUGGGUAUGGAGGAGGACCUGGAGGUGGCAAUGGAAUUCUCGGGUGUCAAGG` the log2 enrichment was -0.213.
The log2 enrichment of `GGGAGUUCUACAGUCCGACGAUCCUCAAGUCCUGUGCUACACAUCGUAUGUACCGAAUCGGUUUUUGGUUUGGUGGAAAGUAUUAUGUUACGCCGUUCGGAUCUGCACUUCCAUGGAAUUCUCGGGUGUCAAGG` is reported as 0.238.
With `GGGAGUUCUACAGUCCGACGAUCACCAUGCAGGUGGGCAUCUUUGCGAAGUGGGGCAAGGGGGGGAUAGGGAGGGGGGUAACACUUUGGGAACAGGUGGUCCCAGGUCGUUUCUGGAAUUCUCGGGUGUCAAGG` the log2 enrichment was 0.38.

Study 2 — method: protein-binding microarray; molecule type: double-stranded DNA, one strand shown; medium: in vitro; concentration: 2540 nM top; notes: 60-bp whole probe; with: salmon DNA 0.4 mg/ml; baseline: random background probes; reading: higher = stronger binding; all sequences stand within: GCCTAGCAC … GTCTTGATTCGCTTGACGCTGCTG
Target: Interferon regulatory factor 3, full length, phosphomimetic (IRF3, Homo sapiens, UniProt Q14653, residues 1-427, S386D/S396D/S398D/S402D/T404D/S405D)
Sequence of UniProt Q14653 (whole entry, unmodified, looked up): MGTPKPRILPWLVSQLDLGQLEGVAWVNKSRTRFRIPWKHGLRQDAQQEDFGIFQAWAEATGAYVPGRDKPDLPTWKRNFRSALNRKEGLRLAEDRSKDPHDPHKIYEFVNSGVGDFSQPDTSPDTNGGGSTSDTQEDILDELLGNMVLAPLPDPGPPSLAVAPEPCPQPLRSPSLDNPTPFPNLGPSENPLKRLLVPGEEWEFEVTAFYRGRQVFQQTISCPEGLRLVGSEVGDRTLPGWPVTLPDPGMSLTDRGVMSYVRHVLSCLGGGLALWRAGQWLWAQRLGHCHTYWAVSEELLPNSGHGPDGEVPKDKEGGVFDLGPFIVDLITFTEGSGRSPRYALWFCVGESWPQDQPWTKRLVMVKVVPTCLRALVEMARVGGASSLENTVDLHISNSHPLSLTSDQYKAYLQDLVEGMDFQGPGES
`TTAGAACTGGGGTTTCCATTAGTGCTA`: “fitted relative affinity” 1.25 z-score.
For `GACGATTTTGGGACTGGAGACGTGCTA`, “fitted relative affinity” read 0.172 z-score.
For `TTAGATAGCGGGTTTCGATTAGTGCTA`, “fitted relative affinity” read 1.51 z-score.
For `GACGAACTGGGGTATCGAGACGTGCTA`, “fitted relative affinity” read -0.439 z-score.
`TTAGGACTGGGTATCGGTTTGTGCTAG` — result for “fitted relative affinity”: 1.57 z-score.
For `AATTTGAGAACGGAAACCAAGTGCTAG`, “fitted relative affinity” read 3.23 z-score.
`TTGGTTTCTGGTTTATTGAGGTGCTAG`: “fitted relative affinity” 3.36 z-score.
For `TCACTGATCCATTTTGGACTGTGCTAG`, “fitted relative affinity” read 1.86 z-score.
`TCAATTTTTGCTTACGAACTGTGCTAG`: “fitted relative affinity” 0.219 z-score.
For `GACGGTTCCGGTTTCGAGACGTGCTAG`, “fitted relative affinity” read 5.98 z-score.
`TCACATTCACCTGTCGTACTGTGCTAG` — result for “fitted relative affinity”: 0.83 z-score.
`GACGGACTGGTACTGCTGACGTGCTAG` — result for “fitted relative affinity”: -0.548 z-score.
`CTCTGTCTAAAATTGTTAAAGTGCTAG` — result for “fitted relative affinity”: -0.0373 z-score.
Under “fitted relative affinity”, `TTAGATTTCGGTTTCGGTTAGTGCTAG` is recorded as 9.1 z-score.
`GACGGTCTCGTACTGCTGACGTGCTAG` — result for “fitted relative affinity”: 0.199 z-score.
`CTAGGTTCCCTTTTCCTTTAGTGCTAG`: “fitted relative affinity” 7.09 z-score.

Study 3 — method: protein-binding microarray; molecule type: double-stranded DNA, one strand shown; medium: in vitro; concentration: not given; reading: higher = stronger binding
Target: Protein C-ets-1 (ETS1, Homo sapiens, UniProt P14921, residues 1-441, Y397A, full length assumed)
Sequence of UniProt P14921 (whole entry, unmodified, looked up): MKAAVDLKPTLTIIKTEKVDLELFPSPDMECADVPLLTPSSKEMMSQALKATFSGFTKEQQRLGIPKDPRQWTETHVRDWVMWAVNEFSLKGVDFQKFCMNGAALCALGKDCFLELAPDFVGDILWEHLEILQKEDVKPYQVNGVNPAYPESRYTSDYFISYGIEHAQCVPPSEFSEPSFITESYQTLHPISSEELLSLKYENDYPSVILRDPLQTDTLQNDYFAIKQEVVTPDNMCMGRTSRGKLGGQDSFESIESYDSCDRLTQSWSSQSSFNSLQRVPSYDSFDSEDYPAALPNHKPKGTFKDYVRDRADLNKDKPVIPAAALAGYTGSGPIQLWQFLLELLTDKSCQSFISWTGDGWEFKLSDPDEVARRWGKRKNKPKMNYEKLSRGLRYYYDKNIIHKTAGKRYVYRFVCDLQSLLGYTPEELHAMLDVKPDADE
Notes: k-mer, scored over probes, only values ≥0.25
`GATTGCAA` gave an E-score of 0.295.
With `ACTGGCAC` the E-score was 0.281.
With `CGACAAAG` the E-score was 0.273.
For `AACATTGT`, the E-score was 0.255.
`ACAATTCG` gave an E-score of 0.277.
`GATGGCAA` gave an E-score of 0.286.
With `TATGGGGA` the E-score was 0.282.
With `TGACAACA` the E-score was 0.292.
For `CTACTTCC`, the E-score was 0.352.
For `GTAATGAC`, the E-score was 0.271.
With `TACAAATA` the E-score was 0.293.
With `AACAAACA` the E-score was 0.296.
For `TATGTCAA`, the E-score was 0.358.
`ATGTGTTG` gave an E-score of 0.286.
For `CTTTGTAA`, the E-score was 0.262.
`CCCGGAAG` has an E-score of 0.314.
`AACAGACA` has an E-score of 0.303.
For `CAGACAAC`, the E-score was 0.266.
For `CGGCGGAA`, the E-score was 0.257.
For `ATCCGGCA`, the E-score was 0.347.
For `CTGACAAC`, the E-score was 0.254.
`CAATGTGA` gave an E-score of 0.289.
For `CCGCCAAA`, the E-score was 0.319.
`GGCAGAAC` gave an E-score of 0.268.
`CAAATAAC` has an E-score of 0.283.

Study 4 — method: universal PBM; molecule type: double-stranded DNA, one strand shown; medium: in vitro; concentration: not given; reading: higher = stronger binding
Target: Sal-like protein 4, full length isoform B (SALL4, Homo sapiens, UniProt Q9UJQ4-2, residues 1-616)
Notes: 8-mer, flanks averaged, mean of replicates
Residues (chain): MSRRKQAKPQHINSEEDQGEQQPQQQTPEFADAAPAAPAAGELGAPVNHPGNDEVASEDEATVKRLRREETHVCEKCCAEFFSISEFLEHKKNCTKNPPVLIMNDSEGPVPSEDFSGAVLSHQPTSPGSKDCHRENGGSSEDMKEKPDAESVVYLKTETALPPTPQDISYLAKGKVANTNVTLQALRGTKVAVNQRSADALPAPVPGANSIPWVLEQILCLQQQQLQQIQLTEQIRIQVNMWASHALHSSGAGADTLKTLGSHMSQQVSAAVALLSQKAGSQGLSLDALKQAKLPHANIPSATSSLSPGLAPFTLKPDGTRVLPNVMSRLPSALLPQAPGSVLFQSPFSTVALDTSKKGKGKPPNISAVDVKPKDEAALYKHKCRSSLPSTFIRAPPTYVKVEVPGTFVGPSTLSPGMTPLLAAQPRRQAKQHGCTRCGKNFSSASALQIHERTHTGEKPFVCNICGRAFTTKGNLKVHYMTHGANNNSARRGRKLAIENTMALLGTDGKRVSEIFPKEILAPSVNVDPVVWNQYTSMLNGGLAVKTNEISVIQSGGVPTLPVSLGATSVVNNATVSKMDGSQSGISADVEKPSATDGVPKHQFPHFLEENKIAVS
`CGCCTGGC` has an E-score of -0.259.
`CGACGCCC` gave an E-score of -0.116.
`GAAGGGCC` gave an E-score of -0.279.
The E-score of `CACCTTGC` is reported as -0.104.
`ACCACAAA` gave an E-score of 0.102.
For `AGCGGAAG`, the E-score was -0.176.
The E-score of `CCAGTTGA` is reported as -0.146.
`CACAGGGG` gave an E-score of -0.199.
With `CTCCATGA` the E-score was -0.00144.
`AAAATTCC` gave an E-score of 0.168.
`AACCTCGC` has an E-score of -0.19.
The E-score of `AATTCTCC` is reported as -0.0477.
With `AAGACCTG` the E-score was -0.209.
`GGCCAATA` has an E-score of 0.151.
`CTGGTCCA` has an E-score of -0.193.
For `AAAGTCTT`, the E-score was 0.0276.
With `GGTGCAGA` the E-score was -0.126.

Study 5 — method: protein binding microarray; molecule type: double-stranded DNA, one strand shown; medium: in vitro; concentration: not given; baseline: not given; reading: higher = stronger binding
Target: Histone acetyltransferase KAT6A, both winged helices, GST fusion (KAT6A, Homo sapiens, UniProt Q92794, residues 1-181)
Notes: 8-mer, flanks averaged, mean of 2 arrays, mostly near background
Residues (chain): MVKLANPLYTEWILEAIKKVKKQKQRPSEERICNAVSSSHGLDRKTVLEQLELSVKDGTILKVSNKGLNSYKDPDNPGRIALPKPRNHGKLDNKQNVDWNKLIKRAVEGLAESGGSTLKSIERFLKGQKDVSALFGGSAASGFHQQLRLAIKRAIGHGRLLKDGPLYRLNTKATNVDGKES
`GGGAGACA` gave an E-score of -0.0237.
For `AATCACCC`, the E-score was -0.173.
With `CCATCTGC` the E-score was -0.0265.
For `GGGAATGA`, the E-score was 0.0721.
`ATAGTAAT` gave an E-score of -0.0575.
`CGCACCTC` has an E-score of 0.0262.
For `ACACACCC`, the E-score was 0.0138.
The E-score of `AGATGCCA` is reported as -0.21.
`ACACAACT` gave an E-score of -0.0611.
`GGTGCCTA` has an E-score of -0.0903.
`ACAGCAGT` gave an E-score of -0.0745.
`CGACTGCC` gave an E-score of 0.114.
For `CAACCACA`, the E-score was -0.0454.
`GCCTGACC` gave an E-score of -0.0944.
With `CTACCAAC` the E-score was -0.0751.
`CCGTCTGA` gave an E-score of 0.197.
With `CTCCTACC` the E-score was -0.0326.
`ACTACTCC` has an E-score of 0.136.
`AAAAATAG` gave an E-score of -0.0506.
The E-score of `AACGCCAA` is reported as -0.0444.
For `ATTCTCTC`, the E-score was -0.0787.
For `CGCGGCTC`, the E-score was 0.334.
With `ACACCCTC` the E-score was -0.227.
For `CGTCAGGA`, the E-score was -0.0805.
For `CATCTAAA`, the E-score was -0.0897.

Some of these lines once more (study 2):
For `GACGAACTGGGGTATCGAGACGTGCTA`, “fitted relative affinity” read -0.439 z-score.
`TTAGGACTGGGTATCGGTTTGTGCTAG` — result for “fitted relative affinity”: 1.57 z-score.
For `AATTTGAGAACGGAAACCAAGTGCTAG`, “fitted relative affinity” read 3.23 z-score.
`TTGGTTTCTGGTTTATTGAGGTGCTAG`: “fitted relative affinity” 3.36 z-score.
For `TCACTGATCCATTTTGGACTGTGCTAG`, “fitted relative affinity” read 1.86 z-score.
`TCAATTTTTGCTTACGAACTGTGCTAG`: “fitted relative affinity” 0.219 z-score.
For `GACGGTTCCGGTTTCGAGACGTGCTAG`, “fitted relative affinity” read 5.98 z-score.
`TCACATTCACCTGTCGTACTGTGCTAG` — result for “fitted relative affinity”: 0.83 z-score.
`GACGGACTGGTACTGCTGACGTGCTAG` — result for “fitted relative affinity”: -0.548 z-score.
`CTCTGTCTAAAATTGTTAAAGTGCTAG` — result for “fitted relative affinity”: -0.0373 z-score.
Under “fitted relative affinity”, `TTAGATTTCGGTTTCGGTTAGTGCTAG` is recorded as 9.1 z-score.
